Measurements collected from several papers.
± marks the error that the study gave.

Molecule	cell line	assay	test system	setting	scale	measurement	value
CN(C)c1ccc(C(=C2C=CC(=[N+](C)C)C=C2)c2ccc(N(C)C)cc2)cc1	HepG2	Seahorse respirometry	–	concentration not given, 1 h, dosed at MMP IC50, added: 1 µM FCCP	reference: basal	OCR	87.5 ± 0.9%
CCCCCCCCCCCCCCCCCC(=O)NCC(COP(=O)([O-])OCC[N+](C)(C)C)OCC (racemic)	HEK293 expressing MOR	morphine-induced cAMP overshoot, HTRF cAMP	–	1 µM, added: NKH 477 25 nM	reference: morphine control	Emax	101%
CC(C)c1ccc2c(c1)CC[C@H]1[C@](C)(CN)CCC[C@]21C	1205Lu	cell growth or viability, MTS	–	24 h	–	IC50	2.49 µM
Clc1ccc(C(c2ccc(Cl)cc2)C(Cl)(Cl)Cl)cc1	human iPSC-derived cardiomyocytes	beating frequency	–	30 min	–	lowest active concentration	3 µM
C/C=C1\NC(=O)[C@@H](NC(=O)[C@H](CCC(N)=O)NC(=O)CCCCC)[C@@H](C)OC(=O)[C@H](C(C)C)NC(=O)[C@H](Cc2ccc(O)cc2)N(C)C(=O)[C@H](Cc2ccccc2)N2C(=O)[C@H](CC[C@H]2O)NC1=O	BEAS-2B	IL1B mRNA induction, inhibitor, RT-qPCR, refers to: IL1B mRNA	–	3 h, added: 100 nM neutrophil elastase	–	concentration at maximal effect	1 µM
C=CCN1CC[C@]23c4c5ccc(O)c4O[C@H]2C(=O)CC[C@@]3(O)[C@H]1C5	HEK293 expressing MOR	morphine-induced cAMP overshoot, HTRF cAMP	–	1 µM, added: NKH 477 25 nM	reference: morphine control	Emax	91%
CC(C)[C@H](CO)Nc1nc(Nc2cc(N)cc(Cl)c2)c2ncn(C(C)C)c2n1	A549 EGFR reporter cells	EGFR-induced granule formation	–	10 µM, added: 500 nM EGF	negative means activation	inhibition	62%
C=C1[C@@H](C)[C@H]2[C@H](Cc3ccccc3)NC(=O)[C@]23[C@H](OC(C)=O)/C=C/[C@@](C)(O)C(=O)[C@@H](C)C/C=C/[C@H]3[C@@H]1O	K562 cells	micropipette aspiration	–	10 µM, 20 min, 37 °C	–	aspiration pressure	6 ± 4 pN/µm²
CC[C@@H](C)[C@@H](NC(=O)[C@@H](N)C(C)C)C(=O)N[C@H](C(=O)N[C@@H](C)C(N)=O)[C@@H](C)CC	PC-12	Aβ42-induced neurotoxicity, inhibitor, MTT	–	concentration not given, 6 h, 37 °C, peptide to Aβ42 1:2, added: Aβ42 2 µM	reference: untreated cells	viability	92.8%
O=C(N[C@H]1CN2CCC1CC2)c1cc2cccc(Br)n2c1	PC-12	–	–	concentration not given, 7 min, added: PNU-120596 1 µM pre-incubation 10 min	reference: untreated	pERK/tERK ratio, maximal increase	3 to 4 fold
CC(C)OC(=O)[C@H](C)N[P@](=O)(OC[C@H]1O[C@@](C#N)(c2ccc3c(N)ncnn23)[C@H](O)[C@@H]1O)Oc1ccccc1	BEAS-2B	refers to: remdesivir triphosphate	–	10 µM, 48 h, added: telaprevir 5 µM	reference: without telaprevir	reduction of metabolite formation	~100%
[Met(O)35]Aβ42	rat primary cortical neurons	LDH release	–	10 µM, 48 h	reference: medium control	viability decrease	17 ± 1%
Cl.Cl.Oc1ccc2c3c1O[C@H]1c4[nH]c5c(c4C[C@@]4(O)[C@@H](C2)N(CC2CC2)CC[C@]314)C[C@@]1(O)[C@H]2Cc3ccc(O)c4c3[C@@]1(CCN2CC1CC1)[C@H]5O4	HEK293 expressing MOR	morphine-induced cAMP overshoot, HTRF cAMP	–	1 µM, added: NKH 477 25 nM	reference: morphine control	efficacy	119%
CC[C@@]1(O)C(=O)OCc2c1cc1n(c2=O)Cc2cc3ccccc3nc2-1	Caco-2	efflux (basolateral to apical), substrate	–	without etoposide	–	Km	173 µM
CC[C@H](C)[C@H](NC(=O)[C@@H](NC(=O)[C@@H](N)Cc1ccccc1)C(C)C)C(=O)N[C@@H](C)C(N)=O	PC-12	Aβ42-induced neurotoxicity, inhibitor, MTT	–	concentration not given, 6 h, 37 °C, peptide to Aβ42 1:2, added: Aβ42 2 µM	reference: untreated cells	viability	95.7%
O=C(/C=C/c1ccc2c(c1)OCO2)NCCCc1ccccc1	Raji	TPA-induced EBV-EA expression, inhibitor	–	100-fold molar ratio to TPA, 48 h, added: TPA 32 pmol/mL	reference: TPA control	EBV-EA positive cells	81.3 ± 2.4%
O=C(Nc1ccccc1)Nc1ccccc1	HepG2	Seahorse respirometry	–	concentration not given, 1 h, dosed at MMP IC50, added: 1 µM FCCP	reference: basal	OCR	194 ± 2.21%
O=C1CC(=O)CC([C@@H]2C[C@H]2c2cc(C(F)(F)F)cc(C(F)(F)F)c2)C1 (racemic)	rat primary cortical neurons	viability	–	up to 100 µM, added: MG132 100 nM	–	neuroprotection	positive
amyloid beta-42 Met35-sulfone	rat primary cortical neurons	TUNEL	–	10 µM, 48 h	–	apoptotic cells	19.7 ± 0.8%
Clc1ccc(C(c2ccccc2Cl)C(Cl)Cl)cc1 (centres unmarked)	HepG2	Seahorse respirometry	–	concentration not given, 1 h, dosed at MMP IC50, added: 1 µM FCCP	reference: basal	OCR	201 ± 3.25%
N.N.[Cl][Pt][Cl]	lymphosarcoma cells	trypan blue	–	48 h	–	GI50	6 ± 0.5 µM
CC1=C(/C=C/C(C)=C/C=C/C(C)=C/C(=O)Nc2ccc(O)cc2)C(C)(C)CCC1	HEK293 expressing MOR	morphine-induced cAMP overshoot, HTRF cAMP	–	1 µM, added: NKH 477 25 nM	reference: morphine control	efficacy	46%
C[C@@H](CO)CCC[C@@H](C)[C@H]1CC[C@H]2[C@@H]3CC=C4C[C@@H](O)CC[C@]4(C)[C@H]3CC[C@]12C	THP-1	bioresmethrin hydrolysis	–	1 µM, 60 min pretreatment, added: bioresmethrin 50 µM	–	inhibition	77 ± 9%
RRRRRRRRGGTTLFF	EL4	–	peptide	concentration not given, 30 min preincubation, 48 h, added: anti-CD3/anti-CD28	reference: control peptide	IL-2 production	inhibited
COc1cc(F)ccc1-c1ncnc(Nc2cccc(C[S@](C)(=N)=O)c2)n1	J-Lat 10.6 cells	refers to: GFP-positive cells	–	10 µM, 21 days, spontaneous, after wash-out	reference: DMSO 0.1%	inhibition of latency reversal	96.5 ± 0.7%
C[C@@H]1CC[C@@]2(OC1)O[C@H]1[C@@H](O)[C@H]3[C@@H]4CC[C@H]5C[C@@H](O[C@@H]6O[C@H](CO)[C@H](O[C@@H]7O[C@H](CO)[C@@H](O)[C@H](O[C@@H]8OC[C@@H](O)[C@H](O)[C@H]8O)[C@H]7O[C@@H]7O[C@H](CO)[C@H](O)[C@H](O[C@@H]8O[C@H](CO)[C@@H](O)[C@H](O)[C@H]8O)[C@H]7O)[C@H](O)[C@H]6O)[C@H](O)C[C@]5(C)[C@H]4CC[C@]3(C)[C@H]1[C@@H]2C	HepG2	Seahorse respirometry	–	concentration not given, 1 h, dosed at MMP IC50, added: 1 µM FCCP	reference: basal	OCR	115.2 ± 0.13%
CC[C@H](C)[C@H](NC(=O)[C@@H](NC(=O)[C@@H](N)C(C)C)C(C)C)C(=O)N[C@H](C(N)=O)C(C)C	PC-12	Aβ42-induced neurotoxicity, inhibitor, MTT	–	concentration not given, 6 h, 37 °C, peptide to Aβ42 1:2, added: Aβ42 2 µM	reference: untreated cells	viability	75.4%
Oc1ccc(Cl)cc1Cc1ccccc1	HepG2	Seahorse respirometry	–	concentration not given, 1 h, dosed at MMP IC50, added: 1 µM FCCP	reference: basal	OCR	151.5 ± 0.39%
Cl[C@H]1[C@H](Cl)[C@@H](Cl)[C@@H](Cl)[C@H](Cl)[C@H]1Cl	human iPSC-derived cardiomyocytes	beat peak frequency	–	30 min	–	lowest effective concentration	30 µM

For quick reference, copied from above:
Molecule	cell line	assay	test system	setting	scale	measurement	value
C[C@@H](CO)CCC[C@@H](C)[C@H]1CC[C@H]2[C@@H]3CC=C4C[C@@H](O)CC[C@]4(C)[C@H]3CC[C@]12C	THP-1	bioresmethrin hydrolysis	–	1 µM, 60 min pretreatment, added: bioresmethrin 50 µM	–	inhibition	77 ± 9%
RRRRRRRRGGTTLFF	EL4	–	peptide	concentration not given, 30 min preincubation, 48 h, added: anti-CD3/anti-CD28	reference: control peptide	IL-2 production	inhibited
COc1cc(F)ccc1-c1ncnc(Nc2cccc(C[S@](C)(=N)=O)c2)n1	J-Lat 10.6 cells	refers to: GFP-positive cells	–	10 µM, 21 days, spontaneous, after wash-out	reference: DMSO 0.1%	inhibition of latency reversal	96.5 ± 0.7%
C[C@@H]1CC[C@@]2(OC1)O[C@H]1[C@@H](O)[C@H]3[C@@H]4CC[C@H]5C[C@@H](O[C@@H]6O[C@H](CO)[C@H](O[C@@H]7O[C@H](CO)[C@@H](O)[C@H](O[C@@H]8OC[C@@H](O)[C@H](O)[C@H]8O)[C@H]7O[C@@H]7O[C@H](CO)[C@H](O)[C@H](O[C@@H]8O[C@H](CO)[C@@H](O)[C@H](O)[C@H]8O)[C@H]7O)[C@H](O)[C@H]6O)[C@H](O)C[C@]5(C)[C@H]4CC[C@]3(C)[C@H]1[C@@H]2C	HepG2	Seahorse respirometry	–	concentration not given, 1 h, dosed at MMP IC50, added: 1 µM FCCP	reference: basal	OCR	115.2 ± 0.13%
